Measurements from different studies.
Each numbered part is a random draw from the data of one study; scales do not carry over between parts. Positions count from the first letter of the parent shown.

Set 1
Target: RNA binding protein fox-1 homolog 2, RRM domain, GST-SBP tag (RBFOX2, Homo sapiens, UniProt O43251-10, residues 100-194)
Technique: RNA Bind-n-Seq
Molecule type: RNA
Sample: in vitro
Concentration: 365 nM
Setting: natural RNA segment, single round, ends assumed
Relative to: no-protein control
Reading: higher = stronger binding
Endpoint: RBNS enrichment (R)
Residues (chain): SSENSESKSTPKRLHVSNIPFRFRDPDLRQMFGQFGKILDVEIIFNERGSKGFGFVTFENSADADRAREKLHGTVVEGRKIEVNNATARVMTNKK
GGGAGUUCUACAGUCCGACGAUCAGCAUUGUAAAUAAUCUUAUGAAACCUUUUUUGAUUGAAGCUAUUCAAAAUAAAAAUUUUAAUGAAUAAAUAACACUUUUUUUCUGUGUCUUUAUUCAUUUGUUUGCUUUUGGAAUUCUCGGGUGCCAA: 1.12
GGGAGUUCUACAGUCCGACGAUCGACUCUUGGGCUGCGAUGCAUCACCCUUGUUACCCUGCAGUGGCUCUUACAAAACCACUUCCUCCCCACCCGCUUGCUGCCAAGGGGCGGGUUGCGGUGCAUGAAACCGCUGGAAUUCUCGGGUGCCAA: 1.79
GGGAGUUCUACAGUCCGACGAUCAAAGAGUCCAAACAACUCAUCAUUUUCUUCUCUGCAUAUCUCACCACAAUUGUAGGAUUUUUUUUUCCAUGUACAUUCUUUGUAUAUGUUCAGAAGGGAUCAAAAUUGCCUGGAAUUCUCGGGUGCCAA: 0.278
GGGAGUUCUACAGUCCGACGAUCAUUUGGCAUUCCAGAAAGGAUUGCUGAUAAUUUAGAUGAUGCAGGGAAGGCCACUGUUAGUAAGGUGCCAGAGCUGCGCCCUUUCCUCCAUCUGCCAUGCCCUAGCCACUUGGAAUUCUCGGGUGCCAA: 0.336
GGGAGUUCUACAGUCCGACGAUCGGAUAAAACGGGUUACUAAGAUGAAAUUGCCAAAAAAAAAAAAAAAUUUGUAACUAAUUUUGUACGUAUGAAUGAAAUCUUUGACCUCUGUCGAGGUUUGCAAAGACUGAUGGAAUUCUCGGGUGCCAA: 1.34
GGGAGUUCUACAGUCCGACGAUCACAAAAUCGAGAAUGUAUCCCCAGAAUCAGUACAGCCAGUUGUUUGAACAUUCUUAAAGUAUCUCGUGGUAUAAUUUCUGUUGACUUCAAGCUUUAAUUUGGAUCCACACUGGAAUUCUCGGGUGCCAA: 0.428
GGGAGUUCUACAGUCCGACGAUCGCCUUGAAAGGGAGCAGAGAGUGGCUGGAGAAUCAAUUCUGACACCGGCUAAAGUUGCAGCUGUUGUAUCUGGUUUCUGUGAGUCCUGCACCAAGUUCAGCCCAAAAUGAUGGAAUUCUCGGGUGCCAA: 0.724
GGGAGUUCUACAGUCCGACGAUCCUGUUAAGCAAGUGUGAUCUGCAACAUUUUUUCAACUUUUGCUAGCACUGUAUACUAUUGCAUUCUUAGGCUACUGUGAGGUCUAUGUUUCUUGUACCAGAAAUUGUCCUUGGAAUUCUCGGGUGCCAA: 0.883
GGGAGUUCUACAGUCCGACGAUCACCUGUUUUCUGAGCUGGCUGACUUGCCAGCCACAAGCUGCUCUUGCAGAGUUCUUACCAUUCCUGUAAAUGUUUUGACUUGUUGCAGAAAUUCCUAUCUACUUUAUUAAUGGAAUUCUCGGGUGCCAA: 0.661

Set 2
Target: CCNA1, cyclin fold, Cln2 fusion (human)
Technique: yeast growth competition, sequencing
Sample: yeast
Setting: weak parent motif
Relative to: not given
Reading: higher = stronger binding
Endpoint: normalised enrichment score
Starting sequence: INSM1 docking peptide (human); PKAIRKLHFEDEV
PKAIRKLHFECEV [D11C]: 1.4
PKAIRKLHFEMEV [D11M]: 0.313
PKAIRKLHFEDQV [E12Q]: 0.501
PKMIRKLHFEDEV [A3M]: 0.185
PKAIRKLHFFDEV [E10F]: 0.253
PKAIRKLHFDDEV [E10D]: 0.348
PKATRKLHFEDEV [I4T]: 0.526
PGAIRKLHFEDEV [K2G]: 0.403
PKAIRKLTFEDEV [H8T]: 0.778

Set 3
Target: Histone acetyltransferase KAT6A, both winged helices, GST fusion (KAT6A, Homo sapiens, UniProt Q92794, residues 1-181)
Technique: protein binding microarray
Molecule type: double-stranded DNA, one strand shown
Sample: in vitro
Concentration: not given
Setting: 8-mer, flanks averaged, mean of 2 arrays, mostly near background
Relative to: not given
Reading: higher = stronger binding
Endpoint: E-score
Construct (chain): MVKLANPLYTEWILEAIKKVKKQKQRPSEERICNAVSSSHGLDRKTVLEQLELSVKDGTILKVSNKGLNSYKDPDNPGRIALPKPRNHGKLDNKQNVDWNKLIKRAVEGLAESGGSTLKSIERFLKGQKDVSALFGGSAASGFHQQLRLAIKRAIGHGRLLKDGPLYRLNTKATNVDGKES
CACGGGGG: 0.0964
CAAGATGG: -0.102
TAAGGTCA: -0.166
GCGTACGC: 0.323
TATCGGAA: 0.0971
GGCGCGGA: 0.288
AGCTGCAC: -0.0939
ACGGTAGA: 0.154
AAGATGCA: -0.219
CGCCGAAC: 0.283

Single results of other studies
PhoQ, residues 284 288 289 292 302 303 SNGLAW
fold induction (PhoP, residues 12 14 15 18 19 LYHSL (Escherichia coli, UniProt P23836); Sort-seq, item: YFP reporter; E. coli; PhoQ-PhoP variant library, together with: 10 µM Mg2+; relative to: high Mg2+ state, higher = stronger signaling): 9.15
